# Results of several laboratories.
# Compare with care: the assays were run in different laboratories.
# Cell line: NCI-H322M
Structure (SMILES),assay,conditions,how to read,measurement,value
NNc1nc(-c2ccc(Cl)cc2)c2c(NC(=O)c3ccccc3)nnc-2[nH]1,SRB,"10 µM, NCI60 single-dose screen",baseline: untreated,cell growth,98.9%
Cc1cc(C)n(C(=S)[S][Au][PH](CCCCCC[PH]([Au][S]C(=S)n2nc(C)cc2C)(c2ccccc2)c2ccccc2)(c2ccccc2)c2ccccc2)n1,"cell growth, NCI-60 screen",non-small cell lung cancer,,log10 TGI,-4.65
COCCOCCOCc1n(Cc2ccc3ccccc3n2)c2ccccc2[n+]1Cc1ccc2ccccc2c1.[Br-],NCI60 five-dose,,,TGI,7.09 µM
CCCCCCCCCCCCCCCCCCOc1ccc(CC(=O)OCC[N+]2(C)CCCC2)cc1,SRB,10 µM,,growth inhibition,< 0%
C#C[C@@]1(O)[C@@H](CO)O[C@@H](n2ccc3c(N)ncnc32)[C@@H]1O,SRB,NCI-60 screen,,TGI,6.08 µM
Cn1cncc1C1=CN(c2ncnc3[nH]cnc23)CCS1,,lung cancer,,TGI,110 µM
COC(=O)/C=C1\C(=O)C=C2C3CC4CC(CCC4(C)N21)C3(C)NC(C)=O (centres unmarked),"cell growth, NCI screen",,,IC50,18.4 µM
CCOC(=O)CSc1nc(-c2ccc(Cl)cc2)c2c(NC(=O)c3ccccc3)nnc-2[nH]1,SRB,"10 µM, NCI60 single-dose screen",baseline: untreated,cell growth,96.6%
CCCCCCCCCCCCCCCCCCOc1ccc(CC(=O)OCC[N+](C)(C)C)cc1,SRB,10 µM,,growth inhibition,< 0%
[Br-].c1ccc2cc(Cn3c[n+](Cc4ccc5ccccc5c4)c4ccccc43)ccc2c1,NCI60 five-dose,,,TGI,2.89 µM
Cc1cc(=O)[nH]n1-c1nc(-c2ccc(Cl)cc2)c2c(NC(=O)c3ccccc3)nnc-2[nH]1,SRB,"10 µM, NCI60 single-dose screen",baseline: untreated,cell growth,91.7%
C#C[C@@]1(O)[C@@H](CO)O[C@@H](n2cc(F)c3c(N)ncnc32)[C@@H]1O,SRB,NCI-60 screen,,TGI,4.48 µM
CCCc1n(Cc2ccc3ccccc3c2)c2ccccc2[n+]1Cc1ccc2ccccc2c1.[Br-],NCI60 five-dose,,,TGI,2.31 µM
CSc1nc(-c2ccc(Cl)cc2)c2c(NC(=O)c3ccccc3)nnc-2[nH]1,SRB,"10 µM, NCI60 single-dose screen",baseline: untreated,cell growth,98.8%

# A few entries again:
Structure (SMILES),assay,conditions,how to read,measurement,value
CCCCCCCCCCCCCCCCCCOc1ccc(CC(=O)OCC[N+](C)(C)C)cc1,SRB,10 µM,,growth inhibition,< 0%
[Br-].c1ccc2cc(Cn3c[n+](Cc4ccc5ccccc5c4)c4ccccc43)ccc2c1,NCI60 five-dose,,,TGI,2.89 µM
